Published values gathered from unrelated publications.
Every numbered part comes from another study and shows a few of its results, in no order. Changes are numbered by the printed parent chain.
UniProt Q9C0B0, sequence (30-357, looked up): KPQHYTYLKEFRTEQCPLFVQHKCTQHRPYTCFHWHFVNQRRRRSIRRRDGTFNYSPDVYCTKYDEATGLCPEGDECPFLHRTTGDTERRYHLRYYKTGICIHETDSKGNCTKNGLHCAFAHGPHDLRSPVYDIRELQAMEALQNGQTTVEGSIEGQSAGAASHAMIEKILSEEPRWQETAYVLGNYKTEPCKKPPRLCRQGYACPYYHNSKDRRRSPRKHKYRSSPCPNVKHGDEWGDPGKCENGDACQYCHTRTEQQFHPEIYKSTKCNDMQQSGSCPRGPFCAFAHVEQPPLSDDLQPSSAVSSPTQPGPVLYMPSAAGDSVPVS

Sample 1 — method: aptamer microarray, sandwich; molecule type: DNA with 2'F-ANA; medium: in vitro; tested at: 200 nM; added: Cy3 exosite-II aptamer, 400 nM; direction: higher = stronger binding; sequence: GGTTGGTGTGGTTGG
Target: Prothrombin, mature alpha-thrombin (F2, Homo sapiens, UniProt P00734)
Notes: whole 15-mer aptamer, many near background
| Modification | mean fluorescence intensity [a.u.] |
| --- | --- |
| 2'F-ANA at 2 3 4 10 | 310 |
| 2'F-ANA at 2 3 4 6 7 8 9 12 14 | 296 |
| 2'F-ANA at 1 2 3 6 8 11 12 14 | 82.7 |
| 2'F-ANA at 2 3 6 9 10 11 13 14 15 | 248 |
| 2'F-ANA at 1 4 7 8 10 11 12 13 15 | 54.9 |
| 2'F-ANA at 1 2 3 4 5 6 7 8 9 10 12 13 14 | 87.3 |
| 2'F-ANA at 1 2 3 5 7 9 11 12 13 14 15 | 49.9 |
| 2'F-ANA at 1 2 3 4 7 10 15 | 58.1 |
| 2'F-ANA at 2 4 9 12 14 15 | 129 |
| 2'F-ANA at 2 6 8 10 11 12 15 | 138 |
| 2'F-ANA at 1 5 6 10 11 12 | 46.9 |
| 2'F-ANA at 1 2 4 5 6 8 11 12 14 | 49.3 |
| 2'F-ANA at 2 6 7 8 9 11 12 14 | 147 |
| 2'F-ANA at 3 4 5 9 12 13 14 15 | 51.6 |
| 2'F-ANA at 1 4 5 6 7 8 10 11 12 14 | 96.3 |
| 2'F-ANA at 1 4 5 6 7 10 14 | 52 |
| 2'F-ANA at 4 6 7 11 13 15 | 146 |
| 2'F-ANA at 1 2 4 6 8 9 12 13 15 | 171 |
| 2'F-ANA at 2 3 4 5 8 9 10 12 14 | 48.3 |
| 2'F-ANA at 1 2 3 4 5 6 7 8 9 12 14 | 49.8 |
| 2'F-ANA at 4 6 7 10 11 15 | 72.8 |
| 2'F-ANA at 3 4 6 11 13 | 457 |
| 2'F-ANA at 1 2 3 4 7 8 15 | 270 |
| 2'F-ANA at 5 6 7 8 9 10 11 12 13 | 51.3 |
| 2'F-ANA at 1 2 3 4 5 6 8 11 15 | 67.4 |

Sample 2 — method: RNA Bind-n-Seq; molecule type: RNA; medium: in vitro; tested at: 365 nM; relative to: no-protein control; direction: higher = stronger binding
Target: RNA binding protein fox-1 homolog 2, RRM domain, GST-SBP tag (RBFOX2, Homo sapiens, UniProt O43251-10, residues 100-194)
Notes: natural RNA segment, single round, ends assumed
All sequences stand within: GGGAGUUCUACAGUCCGACGAUC … UGGAAUUCUCGGGUGCCAA
Construct (chain): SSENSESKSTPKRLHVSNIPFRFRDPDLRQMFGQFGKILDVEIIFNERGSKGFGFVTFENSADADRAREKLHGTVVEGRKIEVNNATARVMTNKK
| Sequence | RBNS enrichment (R) |
| --- | --- |
| UUCCACCCGCUCUCUGUAUUUUCAAUGUUUUUCUCUCAGCGCCUUGCCUUAACAAUCCCCAGACAGUGUUCUCUCAAGCAGUGUUCCAGACUUGUUGGGUGUGAAGAUAA | 0.776 |
| GCUACUCUCAUACAGGGGACCCGUAUUUUAAAAUCUCCAGACUUGCUUACAUCUAGAUUAUCCAGCACAAUCAUAAAGUGAAUGACAAACCCUUUGAAUGAAAUUGUGGC | 0.737 |
| CCCACACCUGGGCAGGCUGUUGGUGUCUCCUUGGUCCUUAGGCAGAUACUCCCCUGAGUCCCCGAUCUAGGGCCAGCUGCAGAGGGCUCUCUCUAGGCAGAGCGUUCCUG | 0.235 |
| UGAAAACAAUUUUUUUGAAUCUUUCUUAGCCUAAAAGACCCAUUUUCCUUGGAACAUGUAAGAACUGUGCAGUAGCCAUUUAUGGUUUAAAGUAAACAGGCCAGAUGAAC | 0.325 |
| CUGGGCUAGAGAGUGAGUUAUUGCUCACUCUGAGUUCUGCGCUACUCUGGGGGACUCUGUUUCAAGGGGAAAAAAAGAACAGAGUCUGACUGCUUGGCUACGUACAGUAU | 0.6 |
| UCAGCUUUGGAUGUGGUUACCGAGUAUCUGUAACCCUUGAAUUUCUAGACAGUAUUGCCACCUCUGGCCAAAUAUGCACUUUCCCUAGAAAGCCAUAUUCCAGCAGUGAA | 0.867 |
| CCUGAGAGUCGAAUUCUUCUCUUCCCUAACCAAUGAAGCUAAGUGGUUAUCCCAGAAACUUGUCUUCUAAAAGGGAGGACUCCAGGCCAUCAAUAAAGAUGUCCAGGCAG | 0.232 |
| UACAAUUAGUGUGUAGCAGAGCACAGCAGUUACGAGCUUGUAUAACGAGGACUCUGGAUCCAGAUUUAAGUAGAUUCAAACACCACUUAACACCAGUAACCGAUUUUAGG | 0.688 |
| AGGGCUCUUUCAAGCCGACUUUCACAAAGAGAGCCGGACUUGUUAGUUGGCUUCUGUCUCUUUAGAGCCAAGAAAAUAGUAAUUAAGUGGCCUAGAUAUAGGAAGGGCAG | 0.264 |
| CAGCUUCCACAACUGCUUCAUCUCUGCCAACACUAAUUUUUCCCACACUGUCUUUGUACAUUUCAGAGCUUUGGUCUCCUGAGUGGGCCUCCUUUUCCCACUGUGCCAGG | 0.647 |
| AUUUAUUAUUUUGCUUUUCUUGCUUAAGUAUAAUUGAAAAUAUUUGCAGGAACGCACAAUUCAUUUUAUCAAGUUGAAUGAAUAGGACCAUUCUCUCCUCAUCAGAUUUC | 0.421 |
| CUCAAUGGGGAGGGGCUGGAGACAGGCUCAGUAGACUAAGGGACUCCUUUAAAUUUCUUUUUGCUGGGACACUGGGUGAACUUGCGAUUGCUUUGACUAAAUCUGCUCAG | 0.62 |

Sample 3 — method: universal PBM; molecule type: double-stranded DNA, one strand shown; medium: in vitro; tested at: 600 nM; direction: higher = stronger binding
Target: Sal-like protein 4, full length isoform A (SALL4, Homo sapiens, UniProt Q9UJQ4, residues 1-1053)
UniProt Q9UJQ4, sequence (whole entry, looked up): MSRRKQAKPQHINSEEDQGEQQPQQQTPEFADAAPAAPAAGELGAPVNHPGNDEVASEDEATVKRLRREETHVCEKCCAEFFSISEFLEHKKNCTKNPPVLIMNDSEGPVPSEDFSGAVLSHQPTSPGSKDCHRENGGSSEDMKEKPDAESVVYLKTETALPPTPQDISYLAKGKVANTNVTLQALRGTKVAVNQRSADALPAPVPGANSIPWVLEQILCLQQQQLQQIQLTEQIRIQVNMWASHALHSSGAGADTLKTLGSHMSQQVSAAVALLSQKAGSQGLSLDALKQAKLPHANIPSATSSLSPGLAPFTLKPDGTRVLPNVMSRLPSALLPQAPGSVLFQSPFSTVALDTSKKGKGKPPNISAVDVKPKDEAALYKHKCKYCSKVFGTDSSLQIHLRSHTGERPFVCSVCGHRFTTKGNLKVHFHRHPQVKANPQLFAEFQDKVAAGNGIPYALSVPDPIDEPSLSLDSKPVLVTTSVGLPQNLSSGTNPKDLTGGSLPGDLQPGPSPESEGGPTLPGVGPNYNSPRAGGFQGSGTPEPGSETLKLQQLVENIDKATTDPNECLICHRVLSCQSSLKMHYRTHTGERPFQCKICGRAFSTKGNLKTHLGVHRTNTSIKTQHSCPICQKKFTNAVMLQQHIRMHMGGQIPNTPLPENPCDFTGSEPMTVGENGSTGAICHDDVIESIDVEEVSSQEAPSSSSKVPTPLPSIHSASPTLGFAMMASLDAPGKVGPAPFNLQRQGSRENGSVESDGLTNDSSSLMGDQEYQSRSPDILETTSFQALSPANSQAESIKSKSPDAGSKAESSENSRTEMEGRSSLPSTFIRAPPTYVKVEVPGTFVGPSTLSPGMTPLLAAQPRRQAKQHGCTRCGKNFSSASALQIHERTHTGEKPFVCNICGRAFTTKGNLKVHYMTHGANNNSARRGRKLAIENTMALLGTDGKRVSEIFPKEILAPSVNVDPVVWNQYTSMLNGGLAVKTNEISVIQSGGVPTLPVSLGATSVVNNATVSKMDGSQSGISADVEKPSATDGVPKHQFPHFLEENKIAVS
Notes: 8-mer, flanks averaged, mean of replicates
| Sequence | E-score |
| --- | --- |
| CTCTCGGA | -0.14 |
| CATCAACC | 0.0911 |
| GGGATTCA | -0.184 |
| GGTGCGAC | -0.2 |
| AGTAGCGG | -0.15 |
| ATCGGAGC | -0.261 |
| CCCTAGGA | -0.204 |
| CATAATCA | 0.369 |
| CGTAAGAC | -0.0396 |
| CATACAAG | 0.135 |
| GATGCCCA | -0.04 |
| GCCTCGTA | -0.0346 |
| GGAATGGA | -0.177 |
| ACGGTCTC | -0.0899 |
| AGGCGTGC | -0.156 |
| ACGAAAAG | 0.118 |
| ATCATTGG | 0.171 |
| ATGATGTG | 0.113 |
| AGTACCTA | 0.161 |
| ATCTGACC | 0.0586 |
| CCCTATAA | 0.16 |
| GTTTTTCA | 0.138 |
| CATGGGTC | -0.144 |
| GAGCTCGC | -0.118 |
| CAACCCAC | -0.163 |

Sample 4 — method: protein binding microarray; molecule type: double-stranded DNA, one strand shown; medium: in vitro; tested at: not given; relative to: not given; direction: higher = stronger binding
Target: Histone acetyltransferase KAT6A, winged helix 2, GST fusion (KAT6A, Homo sapiens, UniProt Q92794, residues 85-181)
Notes: 8-mer, flanks averaged, mean of 2 arrays, mostly near background
Residues (chain): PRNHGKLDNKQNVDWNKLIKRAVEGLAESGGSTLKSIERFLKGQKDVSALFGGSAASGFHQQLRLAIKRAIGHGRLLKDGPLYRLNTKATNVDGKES
| Sequence | E-score |
| --- | --- |
| ACGGAAGC | 0.0838 |
| CCTGTTAG | -0.0612 |
| CGGCACAA | 0.0526 |
| ATAGCAGG | 0.0979 |
| CCAAAGTA | -0.0305 |
| CACTCTGG | 0.0688 |
| CCTTCCCA | 0.176 |
| CACCATTA | -0.162 |
| GTACCCTA | -0.0419 |
| AGCTACCT | -0.00969 |
| CGAGCGCG | 0.181 |
| CAAATCAA | -0.103 |
| CGCAATGC | 0.00973 |
| AATCGAGA | 0.0503 |
| CCCCCTAC | -0.209 |
| AAGTGGCC | -0.088 |
| AATTGATC | 0.0469 |
| TCCCTTAA | -0.133 |
| CTACGTGC | -0.282 |
| ACCGGTGA | -0.124 |
| CGTTACCA | -0.0623 |
| GACGAACC | 0.0216 |
| GGTGACAA | 0.149 |
| ATTGCTCG | -0.0568 |
| AACAAATG | -0.0665 |

Sample 5 — target: CCNB3, cyclin fold, Cln2 fusion (human); method: yeast growth competition, sequencing; medium: yeast; notes: weak parent motif; relative to: not given; direction: higher = stronger binding
Starting sequence: ASZ1 docking peptide (human); GFGFLLFICKLTF
| Variant | normalised enrichment score |
| --- | --- |
| GFGFLLFIAKLTF [C9A] | 0.248 |
| GFGFLAFICKLTF [L6A] | 0.342 |
| AFGFLLFICKLTF [G1A] | 0.208 |
| GFGFLLFICKLAF [T12A] | -0.184 |
| GFGALLFICKLTF [F4A] | 0.367 |
| GFGFLLFICKLTA [F13A] | 0.404 |
| GFGFLLFICALTF [K10A] | 0.303 |

Further values, each from its own experiment
| Molecule | target | assay | test system | conditions | how to read | measurement | value |
| --- | --- | --- | --- | --- | --- | --- | --- |
| PhoQ, residues 284 288 289 292 302 303 SSYNSA | PhoP, residues 12 14 15 18 19 LHSVW (Escherichia coli, UniProt P23836) | Sort-seq, measured: YFP reporter | E. coli | PhoQ-PhoP variant library, added: 10 µM Mg2+ | relative to: high Mg2+ state, higher = stronger signaling | fold induction | 12.3 |
| GGGAGUUCUACAGUCCGACGAUCAAAUAUGUUGUACAUUUGAUUAAAAUUAUUCCGAUAAAUAUUACUAUGUUGACUUUUAAACCGCUUUAUCCUAUUUUUCAUUCAUUUUGCAAAUAUUUGUUGUGUGCCGUUUCUUAACGUCAACAGAGGAUUGAGCAUCA | RING finger protein unkempt homolog, zinc fingers 1-6, SBP tag (UNK, Homo sapiens, UniProt Q9C0B0, residues 30-357) | RNA Bind-n-Seq | RNA, in vitro | 100 nM, RNA with constant flanks, ends assumed | relative to: input RNA pool, higher = stronger binding | bound/input enrichment | 0.506 ratio |

Excerpt of the above (sample 1):
| Modification | mean fluorescence intensity [a.u.] |
| --- | --- |
| 2'F-ANA at 1 4 5 6 7 10 14 | 52 |
| 2'F-ANA at 4 6 7 11 13 15 | 146 |
| 2'F-ANA at 1 2 4 6 8 9 12 13 15 | 171 |
| 2'F-ANA at 2 3 4 5 8 9 10 12 14 | 48.3 |
| 2'F-ANA at 1 2 3 4 5 6 7 8 9 12 14 | 49.8 |
| 2'F-ANA at 4 6 7 10 11 15 | 72.8 |
| 2'F-ANA at 3 4 6 11 13 | 457 |
